Measured values from different studies.
Protocols differ between the studies behind these lines. ≈ marks a conversion by molar mass, not a printed value.
Organism: Pseudomonas aeruginosa

Under “minimal biofilm inhibitory concentration”, `CC(C)C[C@@H]1NC(=O)CSC[C@@H](C(=O)N[C@@H](CCCCN)C(N)=O)NC(=O)[C@H](CC(C)C)NC(=O)[C@H](CC(C)C)NC(=O)[C@H](CC(C)C)NC(=O)[C@@H]2CSCC(=O)N[C@@H](CC(C)C)C(=O)N[C@@H](CC(C)C)C(=O)N[C@@H](CCCCN)C(=O)N[C@@H](CCCCNC(=O)[C@H](CCCCN)NC(=O)[C@H](CC(C)C)NC1=O)C(=O)N[C@@H](CCCCN)C(=O)N[C@@H](CCCCN)C(=O)N[C@@H](CC(C)C)C(=O)N2` is recorded as over 32 µg/mL (PAO1; 24 to 25 h).
The lethal concentration of `CC[C@H](C)[C@H](NC(=O)[C@H](CCCCN)NC(=O)[C@H](CCCCN)NC(=O)[C@H](CC(C)C)NC(=O)[C@H](CCCCN)NC(=O)[C@H](CCC(=O)O)NC(=O)[C@H](CCCCN)NC(=O)[C@@H](NC(=O)[C@H](CCCCN)NC(=O)[C@H](CC(N)=O)NC(=O)[C@H](CCCNC(=N)N)NC(=O)[C@H](Cc1ccccc1)NC(=O)[C@H](CCCCN)NC(=O)[C@H](CCCNC(=N)N)NC(=O)[C@H](CC(C)C)NC(=O)[C@H](CCCNC(=N)N)NC(=O)[C@H](CCCCN)NC(=O)[C@H](CCCNC(=N)N)NC(=O)[C@H](CC(C)C)NC(=O)CN)[C@@H](C)CC)C(=O)NCC(=O)N[C@@H](CCC(N)=O)C(=O)N[C@@H](CCCCN)C(=O)N[C@H](C(=O)N[C@@H](CCC(N)=O)C(=O)NCC(=O)N[C@@H](Cc1ccccc1)C(=O)N[C@H](C(=O)N1CCC[C@H]1C(=O)N[C@@H](CCCCN)C(=O)N[C@@H](CC(C)C)C(=O)N[C@@H](C)C(=O)N1CCC[C@H]1C(=O)N[C@@H](CCCNC(=N)N)C(=O)N[C@H](C(=O)N[C@@H](CC(=O)O)C(=O)N[C@@H](Cc1ccc(O)cc1)C(=O)O)[C@@H](C)O)C(C)C)[C@@H](C)CC` is reported as 1.79 µM (inhibition zone method; 374, LB 0.8% agar with 154 mM NaCl; overnight, 37 °C).
`CC(C)C[C@H](NC(=O)[C@H](CCCCN)NC(=O)[C@H](CCCCNC(=O)[C@H](CC(C)C)NC(=O)[C@H](CCCCN)NC(=O)[C@H](CCCCNC(=O)[C@H](CC(C)C)NC(=O)[C@H](CCCCN)NC(=O)[C@H](CCCCNC(=O)[C@H](CC(C)C)NC(=O)[C@@H](N)CCCCN)NC(=O)[C@H](CC(C)C)NC(=O)[C@@H](N)CCCCN)NC(=O)[C@H](CC(C)C)NC(=O)[C@H](CCCCN)NC(=O)[C@H](CCCCNC(=O)[C@H](CC(C)C)NC(=O)[C@@H](N)CCCCN)NC(=O)[C@H](CC(C)C)NC(=O)[C@@H](N)CCCCN)NC(=O)[C@H](CC(C)C)NC(=O)[C@H](CCCCN)NC(=O)[C@H](CCCCNC(=O)[C@H](CC(C)C)NC(=O)[C@H](CCCCN)NC(=O)[C@H](CCCCNC(=O)[C@H](CC(C)C)NC(=O)[C@@H](N)CCCCN)NC(=O)[C@H](CC(C)C)NC(=O)[C@@H](N)CCCCN)NC(=O)[C@H](CC(C)C)NC(=O)[C@H](CCCCN)NC(=O)[C@H](CCCCNC(=O)[C@H](CC(C)C)NC(=O)[C@@H](N)CCCCN)NC(=O)[C@H](CC(C)C)NC(=O)[C@@H](N)CCCCN)C(N)=O` has an MBIC of 4 µM (biofilm formation; PAO1; 24 h).
Under antibacterial activity, `CC(CCC(=O)[O-])C1CCC2C3CCC4CC(O)CCC4(C)C3CCC12C.C[N+](C)(C)CC(O)CC(=O)O` (stereo not drawn) is recorded as “inactive” (TISTR357; 1 mg per disc, 18 to 24 h, 37 °C).
`CC[C@H](C)[C@H](NC(=O)[C@H](CCCNC(=N)N)NC(=O)[C@H](CCCCN)NC(=O)[C@H](CC(C)C)NC(=O)[C@H](CC(C)C)NC(=O)CN)C(=O)N[C@@H](CCCCN)C(=O)N[C@H](C(=O)N[C@@H](CC(C)C)C(=O)N[C@@H](CC(C)C)C(=O)NCCCC[C@H](NC(=O)[C@H](CC(C)C)NC(=O)[C@H](CC(C)C)NC(=O)[C@@H](NC(=O)[C@H](CCCCN)NC(=O)[C@@H](NC(=O)[C@H](CCCNC(=N)N)NC(=O)[C@H](CCCCN)NC(=O)[C@H](CC(C)C)NC(=O)[C@H](CC(C)C)NC(=O)CN)[C@@H](C)CC)[C@@H](C)O)C(N)=O)[C@@H](C)O` has an FIC index of 0.312 (checkerboard; ATCC 27853; added: polymyxin B).
`CC[C@H](C)[C@H](NC(=O)[C@H](Cc1c[nH]cn1)NC(=O)[C@H](CCCCNC(=O)[C@@H](NC(=O)[C@H](CCCCN)NC(=O)[C@H](Cc1ccccc1)NC(=O)[C@H](CCCCNC(=O)[C@H](CC(C)C)NC(=O)[C@@H]1CCCN1C(=O)[C@H](CCCCN)NC(=O)C[C@@H]1O[C@@H](C)[C@@H](O)[C@@H](O)[C@@H]1O)NC(=O)[C@H](CC(C)C)NC(=O)[C@@H]1CCCN1C(=O)[C@H](CCCCN)NC(=O)C[C@@H]1O[C@@H](C)[C@@H](O)[C@@H](O)[C@@H]1O)[C@@H](C)CC)NC(=O)[C@@H](NC(=O)[C@H](CCCCN)NC(=O)[C@H](Cc1ccccc1)NC(=O)[C@H](CCCCNC(=O)[C@H](CC(C)C)NC(=O)[C@@H]1CCCN1C(=O)[C@H](CCCCN)NC(=O)C[C@@H]1O[C@@H](C)[C@@H](O)[C@@H](O)[C@@H]1O)NC(=O)[C@H](CC(C)C)NC(=O)[C@@H]1CCCN1C(=O)[C@H](CCCCN)NC(=O)C[C@@H]1O[C@@H](C)[C@@H](O)[C@@H](O)[C@@H]1O)[C@@H](C)CC)C(N)=O` has an MBC of over 30 µM (PAO1; biofilm-forming conditions).
The lethal concentration of `CC[C@H](C)[C@H](NC(=O)[C@H](CCCCN)NC(=O)[C@H](CCCCN)NC(=O)[C@H](CC(C)C)NC(=O)[C@H](CCCCN)NC(=O)[C@H](CCC(=O)O)NC(=O)[C@H](CCCCN)NC(=O)[C@@H](NC(=O)[C@H](CCCCN)NC(=O)[C@H](CC(N)=O)NC(=O)[C@H](CCCNC(=N)N)NC(=O)[C@H](Cc1ccccc1)NC(=O)[C@H](CCCCN)NC(=O)[C@H](CCCNC(=N)N)NC(=O)[C@H](CC(C)C)NC(=O)[C@H](CCCNC(=N)N)NC(=O)[C@H](CCCCN)NC(=O)[C@H](CCCNC(=N)N)NC(=O)[C@@H](N)CC(C)C)[C@@H](C)CC)C(=O)NCC(=O)N[C@@H](CCC(N)=O)C(=O)N[C@@H](CCCCN)C(=O)N[C@H](C(=O)N[C@@H](CCC(N)=O)C(=O)NCC(=O)N[C@@H](Cc1ccccc1)C(=O)N[C@H](C(=O)N1CCC[C@H]1C(=O)N[C@@H](CCCCN)C(=O)N[C@@H](CC(C)C)C(=O)O)C(C)C)[C@@H](C)CC` is reported as 1.77 µM (inhibition zone; DH).
For `CC(C)C[C@H](NC(=O)[C@@H]1CSCC(=O)N[C@@H](CCCCN)C(=O)N[C@@H](CC(C)C)C(=O)N[C@@H](CCCCN)C(=O)NCCCC[C@@H]2NC(=O)[C@H](CCCCN)NC(=O)[C@H](CC(C)C)NC(=O)[C@H](CCCCN)NC(=O)CSC[C@H](NC(=O)[C@H](CC(C)C)NC(=O)[C@H](CC(C)C)NC(=O)[C@H](CCCCN)NC2=O)C(=O)N[C@@H](CCCCN)C(=O)N[C@@H](CC(C)C)C(=O)N[C@@H](CCCCN)C(=O)N1)C(N)=O`, “minimal biofilm inhibitory concentration” read 16 µg/mL (PAO1; 24 to 25 h).
For `CC[C@H](C)[C@H](NC(=O)[C@H](CCCCN)NC(=O)[C@H](CCCCN)NC(=O)[C@H](CC(C)C)NC(=O)[C@H](CCCCN)NC(=O)[C@H](CCC(=O)O)NC(=O)[C@H](CCCCN)NC(=O)[C@@H](NC(=O)[C@H](CCCCN)NC(=O)[C@H](CC(N)=O)NC(=O)[C@H](CCCNC(=N)N)NC(=O)[C@H](Cc1ccccc1)NC(=O)[C@H](CCCCN)NC(=O)[C@H](CCCNC(=N)N)NC(=O)[C@H](CC(C)C)NC(=O)[C@H](CCCNC(=N)N)NC(=O)[C@H](CCCCN)NC(=O)[C@H](CCCNC(=N)N)NC(=O)[C@H](CC(C)C)NC(=O)[C@@H](N)CCCNC(=N)N)[C@@H](C)CC)C(=O)NCC(=O)N[C@@H](CCC(N)=O)C(=O)N[C@@H](CCCCN)C(=O)N[C@H](C(=O)N[C@@H](CCC(N)=O)C(=O)NCC(=O)N[C@@H](Cc1ccccc1)C(=O)N[C@H](C(=O)N1CCC[C@H]1C(=O)N[C@@H](CCCCN)C(=O)N[C@@H](CC(C)C)C(=O)N[C@@H](CCC(N)=O)C(=O)N1CCC[C@H]1C(=O)N[C@@H](CO)C(=O)N[C@@H](CCCCN)C(=O)N[C@@H](CCC(N)=O)C(=O)N[C@@H](CO)C(=O)O)C(C)C)[C@@H](C)CC`, the lethal concentration was 5.77 µM (inhibition zone method; 11082603, LB 0.8% agar with 154 mM NaCl; overnight, 37 °C).
`CC[C@@H](C)[C@@H](NC(=O)[C@@H](C)NC(=O)[C@@H](CCCCN)NC(=O)[C@@H](CC(C)C)NC(=O)[C@@H](C)NC(=O)[C@H](NC(=O)[C@@H](Cc1c[nH]cn1)NC(=O)[C@@H](CC(C)C)NC(=O)[C@H](NC(=O)[C@H](NC(=O)[C@@H](CCCCN)NC(=O)[C@@H](CCCCN)NC(=O)[C@@H](C)NC(=O)[C@@H](CO)NC(=O)[C@@H](CCCCN)NC(=O)[C@@H](Cc1ccccc1)NC(=O)[C@H](NC(=O)[C@@H](CCCCN)NC(=O)[C@@H](CC(C)C)NC(=O)[C@@H](Cc1ccccc1)NC(=O)[C@@H](CO)NC(=O)[C@@H](CCCCN)NC(=O)[C@@H](Cc1c[nH]c2ccccc12)NC(=O)[C@@H](CCCCN)NC(C)=O)[C@H](C)O)[C@H](C)O)C(C)C)[C@H](C)O)C(=O)N[C@H](CO)C(=O)N[C@H](CO)C(N)=O` — result for “MIC geometric mean”: 4.1 µM (≈ 12.3 µg/mL) (six isolates; 24 h, 37 °C).
For `C[C@@](O)(C(F)F)[C@H](NC(=O)c1ccc(C#CC#CC2CC2)cc1)C(=O)NO`, the MIC90 was 1 µg/mL (≈ 2.66 µM) (agar dilution; MDR/XDR clinical isolates).
`CC[C@H](C)[C@H](NC(=O)[C@H](CCCCN)NC(=O)[C@H](CCCCN)NC(=O)[C@H](CC(C)C)NC(=O)[C@H](CCCCN)NC(=O)[C@H](CCC(=O)O)NC(=O)[C@H](CCCCN)NC(=O)[C@@H](NC(=O)[C@H](CCCCN)NC(=O)[C@H](CC(N)=O)NC(=O)[C@H](CCCNC(=N)N)NC(=O)[C@H](Cc1ccccc1)NC(=O)[C@H](CCCCN)NC(=O)[C@H](CCCNC(=N)N)NC(=O)[C@H](CC(C)C)NC(=O)[C@H](CCCNC(=N)N)NC(=O)[C@H](CCCCN)NC(=O)[C@H](CCCNC(=N)N)NC(=O)[C@H](CC(C)C)NC(=O)[C@@H](N)CC(C)C)[C@@H](C)CC)C(=O)NCC(=O)N[C@@H](CCC(N)=O)C(=O)N[C@@H](CCCCN)C(=O)N[C@H](C(=O)N[C@@H](CCC(N)=O)C(=O)NCC(=O)N[C@@H](Cc1ccccc1)C(=O)N[C@H](C(=O)N1CCC[C@H]1C(=O)N[C@@H](CCCCN)C(=O)N[C@@H](CC(C)C)C(=O)N[C@H](C(=O)N1CCC[C@H]1C(=O)N[C@@H](CCCNC(=N)N)C(=O)N[C@H](C(=O)N[C@@H](CCC(=O)O)C(=O)N[C@@H](CO)C(=O)O)[C@@H](C)O)C(C)C)C(C)C)[C@@H](C)CC` has a lethal concentration of 2.96 µM (inhibition zone; FRD1; LB agar, overnight).

Repeated from above:
For `CC(C)C[C@H](NC(=O)[C@@H]1CSCC(=O)N[C@@H](CCCCN)C(=O)N[C@@H](CC(C)C)C(=O)N[C@@H](CCCCN)C(=O)NCCCC[C@@H]2NC(=O)[C@H](CCCCN)NC(=O)[C@H](CC(C)C)NC(=O)[C@H](CCCCN)NC(=O)CSC[C@H](NC(=O)[C@H](CC(C)C)NC(=O)[C@H](CC(C)C)NC(=O)[C@H](CCCCN)NC2=O)C(=O)N[C@@H](CCCCN)C(=O)N[C@@H](CC(C)C)C(=O)N[C@@H](CCCCN)C(=O)N1)C(N)=O`, “minimal biofilm inhibitory concentration” read 16 µg/mL (PAO1; 24 to 25 h).
